Published values of several laboratories.
Every numbered part comes from another study and shows a few of its results, in no order.

Study 1 — technique: protein-binding microarray; form: hairpin DNA; sample: in vitro; tested at: not given; baseline: not given; reading: higher = stronger binding; endpoint: median fluorescence
Target: Protein C-ets-1, full length (ETS1, Homo sapiens, UniProt P14921, residues 1-441)
UniProt P14921, sequence (whole entry, looked up): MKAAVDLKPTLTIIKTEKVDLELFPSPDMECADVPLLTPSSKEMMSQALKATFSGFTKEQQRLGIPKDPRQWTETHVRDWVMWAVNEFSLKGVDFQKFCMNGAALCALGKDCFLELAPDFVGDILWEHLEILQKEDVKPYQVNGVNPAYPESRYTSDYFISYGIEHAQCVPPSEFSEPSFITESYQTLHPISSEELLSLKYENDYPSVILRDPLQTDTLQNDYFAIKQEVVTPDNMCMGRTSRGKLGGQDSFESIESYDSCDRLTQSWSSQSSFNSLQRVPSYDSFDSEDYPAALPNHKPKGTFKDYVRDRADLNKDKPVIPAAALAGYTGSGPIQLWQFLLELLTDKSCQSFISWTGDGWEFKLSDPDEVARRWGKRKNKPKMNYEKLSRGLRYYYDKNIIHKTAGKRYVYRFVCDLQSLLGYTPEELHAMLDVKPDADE
Notes: whole hairpin DNA, median over replicate spots
GAGGCCAGCCGGAACGTGCCTCCTGGCACGTTCCGGCTGGCCTCACACTC (5mC at 15): 1010 a.u.
GAGGCCAGTCGGAAGGTGCCTCCTGGCACCTTCCGACTGGCCTCACACTC (5mC at 29): 962 a.u.
GAGGCCAGCCGGAAGATGCCTCCTGGCATCTTCCGGCTGGCCTCACACTC: 3600 a.u.
GAGGCCAGTCCGAAGTTGCCTCCTGGCAACTTCGGACTGGCCTCACACTC: 543 a.u.
GAGGCCAGCGGGAAGTTGCCTCCTGGCAACTTCCCGCTGGCCTCACACTC (5mC at 35): 2520 a.u.
GAGGCCCGTCGGAAGTTGCCTCCTGGCAACTTCCGACGGGCCTCACACTC (5mC at 37): 2420 a.u.
GAGGCCAGCGGGAAGTTGCCTCCTGGCAACTTCCCGCTGGCCTCACACTC: 2170 a.u.
GAGGCCACGCGGAAGTTGCCTCCTGGCAACTTCCGCGTGGCCTCACACTC (5mC at 36): 5060 a.u.
GAGGCCAGCCGGCGGTTGCCTCCTGGCAACCGCCGGCTGGCCTCACACTC (5mC at 31): 602 a.u.
GAGGCCAGCCGGAACTTGCCTCCTGGCAAGTTCCGGCTGGCCTCACACTC: 3290 a.u.

Study 2 — technique: RNA Bind-n-Seq; form: RNA; sample: in vitro; tested at: 365 nM; baseline: no-protein control; reading: higher = stronger binding; endpoint: RBNS enrichment (R)
Target: RNA binding protein fox-1 homolog 2, RRM domain, GST-SBP tag (RBFOX2, Homo sapiens, UniProt O43251-10, residues 100-194)
Notes: natural RNA segment, single round, ends assumed
Residues (chain): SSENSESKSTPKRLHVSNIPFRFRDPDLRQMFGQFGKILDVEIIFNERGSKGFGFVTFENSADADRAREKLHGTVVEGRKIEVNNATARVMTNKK
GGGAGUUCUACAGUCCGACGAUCGUUCACUCUGCUUCCCAACAGUGUAAAUGCAUAGCAGUGUUUACCUGCAUGAGAACUAUGCACUAAUCUAUCUGAAGAAAAAAAAAAACUAUAUCAACUUUGGUAUCUACUGGAAUUCUCGGGUGCCAA: 1.46
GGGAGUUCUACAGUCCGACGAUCAAAGAUCAGAAGCCUUCAGAUAGAGGGUGGUAUUCUGGUAAAGAAGAAAGAGAUAAGGGACGCUACCUUGCUUUUCUGGCACAGGAAGCACAUGAUAAAGCAUGCUCAGAUGGAAUUCUCGGGUGCCAA: 5.43
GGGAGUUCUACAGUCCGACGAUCGGGAACGAGGGAUGAUGAUAACCCUGCCCAUCUGGGAGCCUGAGGACCUGACUAAGGGGUAAGCAGGCCCAGACUGUGGCUCUUGGGUCCUAGAGGGAACCCCCUGUGGUUGGAAUUCUCGGGUGCCAA: 0.594
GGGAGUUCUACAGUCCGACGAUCAUUCAUCGUGUCCCUGUUUGAACGUUUAGCACAAAAGUCUUAAUAGCACAACACAAAUUCCAUCCAAGAGGAGACUCUUUCCCAUGGUGUUGUCCUGGGUCUGGCAGUGGUGGAAUUCUCGGGUGCCAA: 0.723
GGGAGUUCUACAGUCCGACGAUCCCCUACUCAUUAGCUCCCUGCUCCUGGGAUGCUUCCCAAGCAGCCCAGGCCUCUAGCCUCCAUGGCUGAUGACCUCAGCUUUCACACUGGUGAAGUCUGUGUACCCAUACUGGAAUUCUCGGGUGCCAA: 0.537
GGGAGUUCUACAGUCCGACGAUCUUCUGCAUCCACCUAUGGCAUCUGGGUUUGCUGUCACCCUACUUUGUUGUGGCCUUCCUGGUGUAAGAGUCUGUGUUCCUUGGUCACCUCUCCUGAUUCAGACCAGCUCCUGGAAUUCUCGGGUGCCAA: 0.948
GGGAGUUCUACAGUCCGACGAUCUUUUUUGUUUGUUUGUUUUUAAGAAACAAGAAAACAGAACUGCCUUUGCACUAAAUUAGUGACUUGGACUUUUGCCCAGUGAAGACAGGCUGUGACACUCUGGAUGUCUUUGGAAUUCUCGGGUGCCAA: 0.346
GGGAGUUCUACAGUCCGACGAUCUGGAGGUACUUCUCGCCAUCAGCUUCCUUCUUUACAAAACCAUCAUUUCAACAUGAAAAUUAUGUCAGUUUAUAGAAAUAUUUAUUGUUCAAGGUCUGUAAUUGUAUUUCUGGAAUUCUCGGGUGCCAA: 0.421

Study 3 — technique: aptamer microarray, sandwich; form: DNA with 2'F-ANA; sample: in vitro; tested at: 200 nM; together with: Cy3 exosite-II aptamer, 400 nM; reading: higher = stronger binding; endpoint: mean fluorescence intensity; oligonucleotide: GGTTGGTGTGGTTGG
Target: Prothrombin, mature alpha-thrombin (F2, Homo sapiens, UniProt P00734)
Notes: whole 15-mer aptamer, many near background
2'F-ANA at 1 3 4 7 8 9 11 13 14 15: 65.2 a.u.
2'F-ANA at 1 2 10 11 13 14: 53.6 a.u.
2'F-ANA at 1 3 5 7 8 9 11 14: 54.3 a.u.
2'F-ANA at 1 2 5 7 8 9 11 12 13 15: 67.4 a.u.
2'F-ANA at 2 4 5 7 11 12 13 15: 83.6 a.u.
2'F-ANA at 2 4 6 10 14 15: 56.7 a.u.
2'F-ANA at 3 4 6 7 8 9 11 13 14: 222 a.u.
2'F-ANA at 3 4 5 6 11 12 14: 52 a.u.
2'F-ANA at 2 3 4 7 11 12: 818 a.u.
2'F-ANA at 1 2 3 6 7 12 13: 289 a.u.
2'F-ANA at 1 6 8 10 11 13: 90.2 a.u.
2'F-ANA at 1 2 3 4 6 7 8 9 10 11 12 14: 70.5 a.u.
2'F-ANA at 2 3 4 5 7 12 13 14: 52 a.u.
2'F-ANA at 2 3 4 5 6 7 8 11 13 14 15: 76.4 a.u.
2'F-ANA at 4 5 6 7 9 11 13 15: 55.9 a.u.
2'F-ANA at 2 3 6 7 9 10 14 15: 251 a.u.
2'F-ANA at 2 3 5 6 9 13 14: 53.9 a.u.
2'F-ANA at 2 7 8 9 11 12 15: 649 a.u.
2'F-ANA at 3 4 5 10 13: 65.7 a.u.

Study 4 — organism: Saccharomyces cerevisiae; read-out: mating pheromone growth arrest; form: peptide; strain: no Cln2 overexpression; notes: peptide tiling library; reading: direction not given; endpoint: enrichment score
Technique: pooled competitive growth deep sequencing
GFGFLLFICKLTF: -0.473
LRRKLFLDGNGSIS: -0.418
KVKRRLDLDIDGLQKE: 0.293
LRRQLSFSED: 0.263
RKLHFEDEVT: 0.261
RRVLCFDS: -0.35
